Measurements collected from several papers.
A part holds a random share of what one study measured. Positions count from the first letter of the parent shown.

Set 1
Target: PABPC1L2, full length, GST fusion (mouse, UniProt A0ABA7IW68)
Method: RNAcompete
Molecule type: RNA
Sample: in vitro
Concentration: 20 nM
Notes: 7-mer, probes averaged, single round
Reference: mean of 7-mers
Direction: higher = stronger binding
Measurement: 7-mer Z-score
Residues (chain): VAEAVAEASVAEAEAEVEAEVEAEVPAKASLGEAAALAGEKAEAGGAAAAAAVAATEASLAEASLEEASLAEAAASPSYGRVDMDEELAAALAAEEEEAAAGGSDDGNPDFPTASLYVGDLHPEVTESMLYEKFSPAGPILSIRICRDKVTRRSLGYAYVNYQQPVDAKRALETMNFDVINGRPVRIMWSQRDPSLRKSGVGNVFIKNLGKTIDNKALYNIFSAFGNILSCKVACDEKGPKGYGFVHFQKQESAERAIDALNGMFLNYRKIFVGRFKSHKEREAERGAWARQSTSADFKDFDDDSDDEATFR
AGGUCGC: -0.304
GAUGUAU: -0.209
GGUGCUU: 0.0134
GAUUGUU: -0.411
GGCGUCA: 0.102
CUCCCUA: -0.293
GUUUAAU: -0.289
UCGGUCU: -0.311
GAACGAU: -0.0736
AUUCUCG: -0.271
UCAAAGA: 0.162
CGAUGUU: -0.322

Set 2
Target: Fragile X messenger ribonucleoprotein 1, C-terminal low-complexity region (Fmr1, Mus musculus, UniProt P35922)
Method: RNA Bind-n-Seq
Molecule type: RNA
Sample: in vitro
Concentration: 200 nM
Notes: whole 134-nt RNA, ends assumed
With: 150 mM LiCl
Reference: input library
Direction: higher = stronger binding
Measurement: log2 enrichment
All molecules: 7-deaza-guanosine replaces G
All sequences stand within: GGGAGUUCUACAGUCCGACGAUC … UGGAAUUCUCGGGUGUCAAGG
ACCAUGCAGGUGGGCAUCUUUGGGAAGUGGGGCAAGGGGGGGUUAGGGAGGGGGGUAACACUUUGGGAACAGGUGGUCCCAGGUCGUUUC: 0.97
CCUGUGCUACACAUCGUAUGUACCGAAUCGGGGAAAAAAAGGGGUGGGGUUUUUUUGGGGAAAGUAUUAUGUUACGCCGUUCGGAUCUGC: -1.44
CCUGUGCUACACAUCGUAUGUACCGAAUCGGGUUUUUUUGGGUUUUUUUGGUUUUUUUGGAAAGUAUUAUGUUACGCCGUUCGGAUCUGC: 0.0585
UGGGAGGUGGAUUUUGUUUAUUUUUUUAGCUCAUUUCCAGGGGUGGGAAUUUUUUAUUAAUAUGUGUCAUGAAUAAAGUUGUUUUUGAAA: -0.346
UCCUCAAGUCCUGUGCUACACAUCGUAUGUACCGAAUCGGGAGGAGGGAGGAAAGUAUUAUGUUACGCCGUUCGGAUCUGCACUUCCAGC: -2.24
CAAGUCCUGUGCUACACAUCGUAUGUACCGAAUCGGGUUUUUUUGGGUGGGUGGGAAAGUAUUAUGUUACGCCGUUCGGAUCUGCACUUC: -0.541
UCCUGUGCUACACAUCGUAUGUACCGAAUCGGGAAAAAGGGAAAAAAAGGGUUUUUGGGAAAGUAUUAUGUUACGCCGUUCGGAUCUGCA: -1.44
CUGUGCUACACAUCGUAUGUACCGAAUCGGGAAAAAAAGGGGAAAAAAAGGAAAAAAAGGGAAAGUAUUAUGUUACGCCGUUCGGAUCUG: 0.168

Set 3
Target: CCNB3, cyclin fold, Cln2 fusion (human)
Method: yeast growth competition, sequencing
Sample: yeast
Notes: strong parent motif
Reference: not given
Direction: higher = stronger binding
Measurement: normalised enrichment score
Parent: E2F1 docking peptide (human); PPVKRRLDFETDH; partner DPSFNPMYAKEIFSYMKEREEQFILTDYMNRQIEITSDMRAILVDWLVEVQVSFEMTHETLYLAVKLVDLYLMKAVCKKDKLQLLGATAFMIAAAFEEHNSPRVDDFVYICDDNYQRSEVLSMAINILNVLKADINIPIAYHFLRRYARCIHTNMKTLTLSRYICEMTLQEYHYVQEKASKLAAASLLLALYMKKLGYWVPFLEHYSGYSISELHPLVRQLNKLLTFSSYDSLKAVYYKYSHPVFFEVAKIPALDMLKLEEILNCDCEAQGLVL
T11K: 2.2
R6E: 0.0418
L7W: -0.141
D8E: 2.29
L7K: -0.259
D8L: 2.54
D8C: 3.21
L7I: 0.582
K4V: 2.15
V3E: -0.0383
D8N: 3.44
R6Y: 0.409

Other studies, line by line
PhoQ, residues 284 288 289 292 302 303 SIHMAM  fold induction (PhoP, residues 12 14 15 18 19 ICWRQ (Escherichia coli, UniProt P23836); Sort-seq, refers to: YFP reporter; E. coli; PhoQ-PhoP variant library, with: 10 µM Mg2+; reference: high Mg2+ state, higher = stronger signaling): 2.44

Excerpt of the above (set 3):
D8C: 3.21
L7K: -0.259
L7W: -0.141
